Measurements gathered from unrelated publications.
Compare with care: the assays were run in different laboratories. “And” joins repeats or separate records; there may be more than shown. ± marks the error that the study gave.
QRFPR: Pyroglutamylated RF-amide peptide receptor (QRFPR, Homo sapiens, UniProt Q96P65)
UniProt Q96P65, sequence (whole entry, looked up): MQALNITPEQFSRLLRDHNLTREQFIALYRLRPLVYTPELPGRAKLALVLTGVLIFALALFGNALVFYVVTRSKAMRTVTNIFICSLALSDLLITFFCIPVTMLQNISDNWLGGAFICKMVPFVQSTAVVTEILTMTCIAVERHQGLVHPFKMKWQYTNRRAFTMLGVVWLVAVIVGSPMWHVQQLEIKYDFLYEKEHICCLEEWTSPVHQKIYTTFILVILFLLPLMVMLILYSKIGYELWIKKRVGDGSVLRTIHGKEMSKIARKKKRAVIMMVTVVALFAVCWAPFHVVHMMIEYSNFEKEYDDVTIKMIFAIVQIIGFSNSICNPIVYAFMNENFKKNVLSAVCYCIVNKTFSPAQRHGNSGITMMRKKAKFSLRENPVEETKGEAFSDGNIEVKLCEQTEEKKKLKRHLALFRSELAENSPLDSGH
Genome polyprotein NS3 helicase domain: Genome polyprotein, NS3 helicase domain (Hepatitis C virus genotype 1b, UniProt Q9WMX2)
UniProt P53778, sequence (whole entry, looked up): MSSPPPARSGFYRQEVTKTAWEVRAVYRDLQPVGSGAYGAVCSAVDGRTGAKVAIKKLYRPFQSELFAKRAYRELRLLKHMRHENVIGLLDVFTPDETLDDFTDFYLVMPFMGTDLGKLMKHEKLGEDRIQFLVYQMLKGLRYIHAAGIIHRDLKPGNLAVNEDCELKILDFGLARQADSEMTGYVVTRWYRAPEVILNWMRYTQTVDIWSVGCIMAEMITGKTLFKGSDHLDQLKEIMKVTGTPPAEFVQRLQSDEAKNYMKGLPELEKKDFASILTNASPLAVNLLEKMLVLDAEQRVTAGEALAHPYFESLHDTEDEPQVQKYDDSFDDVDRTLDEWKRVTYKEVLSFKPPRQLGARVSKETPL
UniProt Q9Y5N1, sequence (whole entry, looked up): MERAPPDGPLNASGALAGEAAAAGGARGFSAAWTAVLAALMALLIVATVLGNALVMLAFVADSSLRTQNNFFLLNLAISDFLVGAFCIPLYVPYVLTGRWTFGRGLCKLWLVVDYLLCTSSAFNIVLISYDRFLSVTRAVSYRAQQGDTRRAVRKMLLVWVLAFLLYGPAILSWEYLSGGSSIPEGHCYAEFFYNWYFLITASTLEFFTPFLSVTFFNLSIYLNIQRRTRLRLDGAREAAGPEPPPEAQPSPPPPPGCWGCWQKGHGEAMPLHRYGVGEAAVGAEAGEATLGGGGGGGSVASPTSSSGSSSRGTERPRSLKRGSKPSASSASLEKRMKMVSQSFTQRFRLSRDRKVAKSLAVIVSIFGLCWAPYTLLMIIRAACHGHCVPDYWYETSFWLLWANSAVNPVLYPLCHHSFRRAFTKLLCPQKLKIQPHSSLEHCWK
UniProt P13504, sequence (whole entry, looked up): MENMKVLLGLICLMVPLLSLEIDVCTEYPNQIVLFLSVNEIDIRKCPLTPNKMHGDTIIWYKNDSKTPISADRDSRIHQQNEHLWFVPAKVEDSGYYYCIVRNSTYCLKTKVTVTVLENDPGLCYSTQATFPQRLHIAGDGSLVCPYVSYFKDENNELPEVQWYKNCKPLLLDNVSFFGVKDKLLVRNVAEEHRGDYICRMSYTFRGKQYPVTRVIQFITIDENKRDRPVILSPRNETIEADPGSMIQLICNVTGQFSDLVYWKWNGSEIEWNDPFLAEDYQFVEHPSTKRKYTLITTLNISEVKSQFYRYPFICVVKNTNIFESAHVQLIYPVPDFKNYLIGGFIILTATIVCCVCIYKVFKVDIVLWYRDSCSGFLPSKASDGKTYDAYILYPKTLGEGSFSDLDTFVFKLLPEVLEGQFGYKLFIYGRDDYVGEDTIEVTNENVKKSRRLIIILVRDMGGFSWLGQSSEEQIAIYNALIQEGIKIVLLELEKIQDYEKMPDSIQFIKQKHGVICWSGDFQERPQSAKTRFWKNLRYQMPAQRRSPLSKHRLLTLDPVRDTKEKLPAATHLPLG

SMILES	target	test	system	setting	scale	inhibition
CC[C@H](C)[C@H](NC(=O)[C@@H](NC(=O)[C@H](N)Cc1ccccc1)C(C)C)C(=O)N[C@@H](C)C(N)=O	APP (Homo sapiens, UniProt P05067)	amyloid-beta aggregation, thioflavin T fluorescence		0.5 µM, 72 h, added: 2 µM amyloid-beta		70.3%
CC(C)N1CCC[C@H]1CNC(=O)c1cn(C2CCCC2)c(=O)c2c1c1ccccc1n2C	Interleukin-1 receptor type 1 (Il1r1, Mus musculus, UniProt P13504)	radioligand binding	mouse	10 µM		-1%
O=C(Nc1cnccc1Cl)N1CCN(Cc2ccc3c(c2)OC(F)(F)O3)CC1	QRFPR			concentration not given		-1% and -9%
CCCC[C@@H](NC(=O)[C@@H](N)Cc1c(C)cc(O)cc1C)C(=O)NCC(=O)N[C@@H](Cc1ccc(F)cc1)C(=O)N(C)CCC[C@@]1(c2ccc(F)cc2)OCc2cc(C#N)ccc21	SLC6A4 (Homo sapiens, UniProt P31645)			10 µM		< 50%
O=c1c(Cl)c(Cl)cnn1Cc1nc2ccccc2c2ccccc12	Trypanothione synthetase (Leishmania infantum, UniProt A4I2Z3)	enzyme activity		25 µM		19.7 ± 7.4%
C#Cc1n[nH]c2c(-c3cn(C(C)c4ccccn4)c(=O)[nH]c3=O)cc(F)cc12 (stereo not drawn)	human FLT3 ITD mutant	kinase activity, inhibitor		1 µM		-17.3%
CC(C)(C)c1cc(C=C(C#N)C#N)cc(C(C)(C)C)c1O	Genome polyprotein NS3 helicase domain	DNA binding, inhibitor	hepatitis C virus	100 µM, added: Cy5-dT15 DNA		0%
CC(=O)NC[C@H]1[C@H](O)[C@H](O)[C@@H]2[C@H](O)C[C@@H](CO)N21	Spodoptera litura β-N-acetylglucosaminidase		crude enzyme	0.00313 µM, run 2, added: p-nitrophenyl GlcNAc		23.2%
O=C(N1CCC2(CC1)C[C@H](CN1CCCCS1(=O)=O)CCO2)C1(c2ccccc2)CCCC1	Interferon-induced helicase C domain-containing protein 1 (IFIH1, Homo sapiens, UniProt Q9BYX4)	ATPase activity		50 µM		0%
CC(C)(C)NCC(O)c1cc(O)cc(O)c1 (stereo not drawn)	Gag polyprotein, nucleocapsid protein p7 (gag, Human immunodeficiency virus type 1 group M subtype B, UniProt P04591)	NCp7-RNA binding, AlphaScreen	HIV-1	45 µM		> 50%
Cc1ncc(C)n2nc(/C=C/c3nc(N4CCCC4)cc(N4CCOCC4)n3)nc12	L-type calcium channel dihydropyridine site	radioligand binding		10 µM		19%
NC(N)=NOCC[C@H](N)C(=O)O.O=S(=O)(O)O	Genome polyprotein NS3 helicase domain	DNA binding, inhibitor	hepatitis C virus	100 µM, added: Cy5-dT15 DNA		2%
O=c1ccc2ccccc2o1	PTGS2 (Homo sapiens, UniProt P35354)	enzyme activity		10 µM		-5.04%
CN1CC[C@]2(CCN3CCc4c(oc5ccccc45)[C@@H]3C2)N(C)C1=O.Cl	Genome polyprotein NS3 helicase domain	DNA binding, inhibitor	hepatitis C virus	100 µM, added: Cy5-dT15 DNA		3%
COc1cc(Nc2ncc(F)c(Nc3ccc4c(n3)NC(=O)C(C)(C)O4)n2)cc(OC)c1OC	PRPF4B (Homo sapiens, UniProt Q13523)	kinase binding, KINOMEscan		10 µM		26%
Cn1cccc1-c1cccnc1	HRH3 (Homo sapiens, UniProt Q9Y5N1)	binding		50 µM		5.58%
COC(=O)c1ccc(C(=O)OC)c(NC(=O)CN2CCN(C(=O)COc3c(C)cccc3C)CC2)c1	uncharacterized protein (Erigeron canadensis, UniProt A0A8M0FGR5)	enzyme activity		100 mg/L		> 30%
O=C(O)CC(Cc1ccccc1)C(=O)O (stereo not drawn)	N-acyl-aromatic-L-amino acid amidohydrolase (carboxylate-forming) (Acy3, Mus musculus, UniProt Q91XE4)	enzyme activity		1 mM		inhibited
c1ccc(C(NCCNC(c2ccccc2)c2ccccc2)c2ccccc2)cc1	Cyclin-dependent kinase 1, with cyclin B1 (CDK1, Homo sapiens, UniProt P06493)	enzyme activity		10 µM, Eurofins selectivity panel		16%
COc1ccc(N2C(=O)N(c3c(C)cccc3Cl)Cc3cnc(Nc4ccc(C5CCN(C)CC5)cc4OC)nc32)nc1	SGK1 (Homo sapiens, UniProt O00141)	kinase activity		0.5 µM		3.75%
Br.CCCN1CCc2cc(O)cc3c2[C@H]1Cc1ccc(O)c(O)c1-3	Genome polyprotein NS3 helicase domain	DNA binding, inhibitor	hepatitis C virus	100 µM, added: Cy5-dT15 DNA		1%
CN(C(=O)n1cnc(-c2ccc[n+]([O-])c2)c1)C1CCCCC1	GABA transporter, rat	binding		10 µM, added: [3H]GABA		-4%
C#C[C@]1(O)CC[C@H]2[C@@H]3CCC4=Cc5nc6nc7ccccc7n6cc5C[C@]4(C)[C@H]3CC[C@@]21C	Genome polyprotein NS3 helicase domain	DNA binding, inhibitor	hepatitis C virus	100 µM, added: Cy5-dT15 DNA		0%
O=C(Nc1cccnn1)N1CCC(=Cc2cccc(Oc3ccc(C(F)(F)F)cn3)c2)CC1	QRFPR			concentration not given		-1% and -4%
CC(=O)OCC1=C(C(=O)[O-])N2C(=O)[C@@H](NC(=O)CCC[C@@H](N)C(=O)[O-])[C@H]2SC1.[Zn+2]	Genome polyprotein NS3 helicase domain	DNA binding, inhibitor	hepatitis C virus	100 µM, added: Cy5-dT15 DNA		0%
CN1CCN(c2cc(-c3ccncc3)c(-c3ccc4ccccc4c3)nn2)CC1	FFAR1 (Homo sapiens, UniProt O14842)	antagonist, FLIPR		10 µM		-4.5%
COc1ccc2[nH]c3c(c2c1)CCNC3	Genome polyprotein NS3 helicase domain	DNA binding, inhibitor	hepatitis C virus	100 µM, added: Cy5-dT15 DNA		1%
FC(F)(F)c1cccc(Nc2nc(NCCOc3ccccc3)nc3[nH]cnc23)c1	MAPK12 (Homo sapiens, UniProt P53778)	enzyme activity, inhibitor, Thermo Fisher kinase screening		5 µM		6% and 12%
CN1CCN(c2nc(N)c3ccccc3n2)CC1	HTR6 (Homo sapiens, UniProt P50406)	radioligand binding, radioligand competition binding		0.1 µM, mean of two	baseline: control specific binding	0.6%
CN1CCCC1c1cccnc1.O=C(O)C(O)C(O)C(=O)O (single isomer, unassigned; (-))	Genome polyprotein NS3 helicase domain	DNA binding, inhibitor	hepatitis C virus	100 µM, added: Cy5-dT15 DNA		0%

Excerpt of the above:
SMILES	target	test	system	setting	scale	inhibition
Cn1cccc1-c1cccnc1	HRH3 (Homo sapiens, UniProt Q9Y5N1)	binding		50 µM		5.58%
COC(=O)c1ccc(C(=O)OC)c(NC(=O)CN2CCN(C(=O)COc3c(C)cccc3C)CC2)c1	uncharacterized protein (Erigeron canadensis, UniProt A0A8M0FGR5)	enzyme activity		100 mg/L		> 30%
O=C(O)CC(Cc1ccccc1)C(=O)O (stereo not drawn)	N-acyl-aromatic-L-amino acid amidohydrolase (carboxylate-forming) (Acy3, Mus musculus, UniProt Q91XE4)	enzyme activity		1 mM		inhibited
c1ccc(C(NCCNC(c2ccccc2)c2ccccc2)c2ccccc2)cc1	Cyclin-dependent kinase 1, with cyclin B1 (CDK1, Homo sapiens, UniProt P06493)	enzyme activity		10 µM, Eurofins selectivity panel		16%
